Assay results collected from several papers.
Lines come from different studies, so protocols differ. ± gives the spread as reported.

CSCC[C@H](NC(=O)CNC(=O)[C@H](CCCCN)NC(=O)[C@H](CC(C)C)NC(=O)[C@@H]1CCCN1C(=O)[C@H](CO)NC(=O)[C@H](Cc1c[nH]cn1)NC(=O)[C@H](Cc1c[nH]c2ccccc12)NC(=O)[C@H](CCCNC(=N)N)NC(=O)[C@H](CC(C)C)NC(=O)[C@H](CCCNC(=N)N)NC(=O)[C@H](Cc1c[nH]c2ccccc12)NC(=O)[C@H](CS)NC(=O)CCCCCNC(=O)CN1CCN(CC(=O)O)CCN(CC(=O)O)CCN(CC(=O)O)CC1)C(=O)O [copper-64 labelled] gave a tissue uptake of 2.19 ± 0.2 %ID/g (PET imaging; BALB/c nude mice, tumor; intravenous, dose not given, 4 h, Huh-7 tumour-bearing).
CC(C)C[C@@H](NC(=O)[C@@H](CCCNC(=N)N)NC(=O)[C@@H](Cc1c[nH]cn1)NC(=O)[C@@H](Cc1c[nH]c2ccccc12)NC(=O)[C@@H](Cc1c[nH]cn1)NC(=O)[C@@H](Cc1ccccc1)NC(=O)[C@H](NC(=O)[C@@H](Cc1ccc(O)cc1)NC(=O)CNC(=O)CNC(=O)CCOCCOCCOCCNC(=O)CN1CCN(CC(=O)O)CCN(CC(=O)O)CC1)[C@H](C)O)C(=O)N[C@H](CC(N)=O)C(=O)N1CCC[C@@H]1C(=O)O [gallium-68 labelled] has a tissue uptake of 35.7 ± 3.06 %ID/g (C57BL/6 mice, male, kidney; intravenous, 1.85 MBq, 60 min, with: blocking antibody).
CC[C@H](C)[C@H](NC(=O)[C@H](CCCNC(=N)N)NC(=O)[C@H](CCCCN)NC(=O)[C@H](Cc1ccc(O)cc1)NC(=O)[C@H](CC(=O)O)NC(=O)[C@H](C)NC(=O)CNC(=O)CCOCCOCCOCCNC(=O)CN1CCN(CC(=O)O)CCN(CC(=O)O)CCN(CC(=O)O)CC1)C(=O)N[C@H](C(=O)N[C@H](C(=O)N[C@@H](CCCCN)C(=O)N[C@H](C(=O)N[C@@H](CC(N)=O)C(N)=O)C(C)C)C(C)C)[C@@H](C)O [copper-64 labelled] has a tissue uptake of 4.43 ± 0.134 %ID/g (ex vivo gamma counting; C57BL/6J male mice, B16-F10 tumour, liver; intravenous, 1.85 MBq, 100 min).
CC[C@H](C)[C@H](NC(=O)[C@@H](Cc1c[nH]c2ccccc12)NC(=O)[C@@H]1CCCN1C(=O)[C@H](CCCCN)NC(=O)[C@H](CCCCN)NC(=O)CCNC(=O)CCNC(=O)CN1CCN(CC(=O)O)CCN(CC(=O)O)CCN(CC(=O)O)CC1)C(=O)N[C@@H](C[Si](C)(C)C)C(=O)O [gallium-68 labelled] gave a tissue uptake of 0.1 ± 0.02 %ID/g (ex vivo biodistribution; nude mice, HT-29 xenograft, heart; 90 min, with: levocabastine 0.5 µmol).
For CC[C@H](C)[C@H](NC(=O)[C@H](CCCNC(=N)N)NC(=O)[C@H](CCCCN)NC(=O)[C@H](Cc1ccc(O)cc1)NC(=O)[C@H](CC(=O)O)NC(=O)[C@H](C)NC(=O)CNC(=O)CCOCCOCCOCCNC(=O)CN1CCN(CC(=O)O)CCN(CC(=O)O)CCN(CC(=O)O)CC1)C(=O)N[C@H](C(=O)N[C@@H](CC(C)C)C(=O)N[C@@H](CCCCN)C(=O)N[C@H](C(=O)N[C@@H](CC(N)=O)C(N)=O)C(C)C)[C@@H](C)O [copper-64 labelled], the tissue uptake was 0.73 ± 0.287 %ID/g (ex vivo gamma counting; C57BL/6J male mice, B16-F10 tumour, pancreas; intravenous, 1.85 MBq, 20 min).
C[C@H](O)[C@@H](NC(=O)[C@H]1CCCN1C(=O)[C@@H](CCCCN)NC(=O)[C@@H](CO)NC(=O)[C@@H](Cc1ccc(O)cc1)NC(=O)[C@@H](CC(N)=O)NC(=O)CCOCCOCCOCCNC(=O)CN1CCN(CC(=O)O)CCN(CC(=O)O)CCN(CC(=O)O)CC1)C(=O)N[C@H](CC(=O)O)C(=O)N[C@H](CCCNC(=N)N)C(=O)N[C@H](CCC(N)=O)C(=O)N[C@H](Cc1ccc(O)cc1)C(=O)N[C@H](Cc1c[nH]cn1)C(=O)N[C@H](Cc1ccccc1)C(N)=O [copper-64 labelled] has a tissue uptake of 28.6 ± 3.04 %ID/g (C57BL/6J mice, kidney; intravenous, 1.85 MBq, 0.3333 h, radiolabelled).
CC[C@H](C)[C@H](NC(=O)[C@H](CCCCN)NC(=O)CNC(=O)[C@H](CC(C)C)NC(=O)[C@H](Cc1ccccc1)NC(=O)[C@H](CCCCN)NC(=O)[C@H](CO)NC(=O)[C@H](Cc1ccccc1)NC(=O)[C@H](Cc1c[nH]c2ccccc12)NC(=O)[C@H](CCC(N)=O)NC(=O)[C@@H](NC(=O)[C@H](Cc1ccccc1)NC(=O)CCCCCNC(=O)CN1CCN(CC(=O)O)CCN(CC(=O)O)CCN(CC(=O)O)CC1)C(C)C)C(=O)N[C@@H](CCC(=O)O)C(=O)N1CCC[C@H]1C(=O)N[C@@H](CC(=O)O)C(=O)N[C@H](C(=O)N[C@@H](CO)C(=O)N[C@@H](CCC(N)=O)C(=O)N[C@H](C(=O)N[C@@H](CCC(N)=O)C(=O)N[C@@H](CC(=O)O)C(=O)N1CCC[C@H]1C(=O)N[C@@H](CC(N)=O)C(=O)N[C@@H](CC(=O)O)C(=O)N[C@@H](CCC(N)=O)C(=O)N[C@@H](Cc1ccc(O)cc1)C(=O)N[C@@H](CCC(=O)O)C(=O)N1CCC[C@H]1C(=O)N[C@@H](Cc1ccccc1)C(=O)O)C(C)C)C(C)C [copper-64 labelled] has a tissue uptake of 1.19 ± 0.1 %ID/g (C57BL/6 mice, male, naive, skeletal muscle; 0.5 h).
CCCC[C@H]1C(=O)N(C)[C@@H](CCCC)C(=O)N[C@@H](CCCNC(=O)CN2CCN(CC(=O)O)CCN(CC(=O)O)CCN(CC(=O)O)CC2)C(=O)N[C@H](C(=O)NCC(N)=O)CSCC(=O)N[C@@H](Cc2ccc(O)cc2)C(=O)N(C)[C@@H](C)C(=O)N[C@@H](CC(N)=O)C(=O)N2CCC[C@H]2C(=O)N[C@@H](Cc2c[nH]cn2)C(=O)N[C@@H](CC(C)C)C(=O)N(C)CC(=O)N[C@@H](Cc2c[nH]c3ccccc23)C(=O)N[C@@H](CO)C(=O)N[C@@H](Cc2c[nH]c3ccccc23)C(=O)N1C [gallium-68 labelled] gave a tissue uptake of 4.56 ± 0.64 %ID/g (NOD/SCID mice, CHO-hPD-L1 xenograft, spleen; 60 min, with: blocking agent 50 µg co-injected).

Some of these lines once more:
CC[C@H](C)[C@H](NC(=O)[C@H](CCCNC(=N)N)NC(=O)[C@H](CCCCN)NC(=O)[C@H](Cc1ccc(O)cc1)NC(=O)[C@H](CC(=O)O)NC(=O)[C@H](C)NC(=O)CNC(=O)CCOCCOCCOCCNC(=O)CN1CCN(CC(=O)O)CCN(CC(=O)O)CCN(CC(=O)O)CC1)C(=O)N[C@H](C(=O)N[C@H](C(=O)N[C@@H](CCCCN)C(=O)N[C@H](C(=O)N[C@@H](CC(N)=O)C(N)=O)C(C)C)C(C)C)[C@@H](C)O [copper-64 labelled] has a tissue uptake of 4.43 ± 0.134 %ID/g (ex vivo gamma counting; C57BL/6J male mice, B16-F10 tumour, liver; intravenous, 1.85 MBq, 100 min).
